Measurements from different studies.
A part holds a random share of what one study measured.
UniProt Q9UM73, sequence (whole entry, unmodified, looked up): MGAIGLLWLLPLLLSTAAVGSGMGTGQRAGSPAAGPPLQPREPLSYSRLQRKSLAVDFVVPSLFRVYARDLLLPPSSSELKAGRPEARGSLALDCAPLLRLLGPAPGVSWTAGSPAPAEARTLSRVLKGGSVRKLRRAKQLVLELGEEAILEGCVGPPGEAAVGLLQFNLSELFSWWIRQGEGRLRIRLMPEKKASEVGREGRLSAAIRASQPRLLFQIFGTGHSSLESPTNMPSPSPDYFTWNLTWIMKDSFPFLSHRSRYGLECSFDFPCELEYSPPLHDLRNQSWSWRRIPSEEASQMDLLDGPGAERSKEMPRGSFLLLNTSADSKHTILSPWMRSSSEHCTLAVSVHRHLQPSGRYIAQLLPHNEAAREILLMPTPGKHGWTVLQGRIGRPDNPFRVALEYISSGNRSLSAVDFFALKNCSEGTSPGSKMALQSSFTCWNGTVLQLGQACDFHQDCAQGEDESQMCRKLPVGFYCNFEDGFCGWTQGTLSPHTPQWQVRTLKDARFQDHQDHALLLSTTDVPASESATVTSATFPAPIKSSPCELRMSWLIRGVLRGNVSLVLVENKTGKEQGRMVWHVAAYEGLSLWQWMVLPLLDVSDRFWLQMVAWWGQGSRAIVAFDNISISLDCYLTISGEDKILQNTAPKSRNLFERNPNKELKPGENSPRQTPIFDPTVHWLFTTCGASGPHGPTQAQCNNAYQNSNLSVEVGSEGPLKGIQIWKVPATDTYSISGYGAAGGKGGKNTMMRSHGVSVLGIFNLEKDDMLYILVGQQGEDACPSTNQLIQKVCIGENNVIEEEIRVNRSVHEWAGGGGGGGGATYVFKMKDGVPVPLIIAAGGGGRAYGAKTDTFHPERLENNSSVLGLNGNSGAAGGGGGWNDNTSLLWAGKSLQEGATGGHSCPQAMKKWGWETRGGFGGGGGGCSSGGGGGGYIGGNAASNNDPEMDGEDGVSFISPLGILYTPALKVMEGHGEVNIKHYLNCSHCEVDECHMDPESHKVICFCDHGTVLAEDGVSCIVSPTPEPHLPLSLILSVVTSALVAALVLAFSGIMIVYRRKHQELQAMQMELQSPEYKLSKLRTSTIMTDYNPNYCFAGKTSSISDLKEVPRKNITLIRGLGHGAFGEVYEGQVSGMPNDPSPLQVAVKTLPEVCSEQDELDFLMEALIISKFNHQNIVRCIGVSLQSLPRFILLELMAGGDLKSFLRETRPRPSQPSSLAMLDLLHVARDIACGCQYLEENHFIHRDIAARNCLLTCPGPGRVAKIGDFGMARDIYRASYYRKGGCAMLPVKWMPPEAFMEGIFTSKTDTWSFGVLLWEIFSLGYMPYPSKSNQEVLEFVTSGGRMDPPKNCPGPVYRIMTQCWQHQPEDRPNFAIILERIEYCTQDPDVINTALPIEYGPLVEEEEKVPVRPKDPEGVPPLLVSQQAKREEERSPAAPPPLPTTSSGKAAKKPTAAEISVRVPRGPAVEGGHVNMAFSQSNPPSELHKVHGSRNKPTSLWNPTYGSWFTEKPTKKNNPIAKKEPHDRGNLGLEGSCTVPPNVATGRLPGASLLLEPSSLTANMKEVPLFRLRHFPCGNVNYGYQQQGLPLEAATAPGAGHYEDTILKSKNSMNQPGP
UniProt P17948, sequence (whole entry, looked up): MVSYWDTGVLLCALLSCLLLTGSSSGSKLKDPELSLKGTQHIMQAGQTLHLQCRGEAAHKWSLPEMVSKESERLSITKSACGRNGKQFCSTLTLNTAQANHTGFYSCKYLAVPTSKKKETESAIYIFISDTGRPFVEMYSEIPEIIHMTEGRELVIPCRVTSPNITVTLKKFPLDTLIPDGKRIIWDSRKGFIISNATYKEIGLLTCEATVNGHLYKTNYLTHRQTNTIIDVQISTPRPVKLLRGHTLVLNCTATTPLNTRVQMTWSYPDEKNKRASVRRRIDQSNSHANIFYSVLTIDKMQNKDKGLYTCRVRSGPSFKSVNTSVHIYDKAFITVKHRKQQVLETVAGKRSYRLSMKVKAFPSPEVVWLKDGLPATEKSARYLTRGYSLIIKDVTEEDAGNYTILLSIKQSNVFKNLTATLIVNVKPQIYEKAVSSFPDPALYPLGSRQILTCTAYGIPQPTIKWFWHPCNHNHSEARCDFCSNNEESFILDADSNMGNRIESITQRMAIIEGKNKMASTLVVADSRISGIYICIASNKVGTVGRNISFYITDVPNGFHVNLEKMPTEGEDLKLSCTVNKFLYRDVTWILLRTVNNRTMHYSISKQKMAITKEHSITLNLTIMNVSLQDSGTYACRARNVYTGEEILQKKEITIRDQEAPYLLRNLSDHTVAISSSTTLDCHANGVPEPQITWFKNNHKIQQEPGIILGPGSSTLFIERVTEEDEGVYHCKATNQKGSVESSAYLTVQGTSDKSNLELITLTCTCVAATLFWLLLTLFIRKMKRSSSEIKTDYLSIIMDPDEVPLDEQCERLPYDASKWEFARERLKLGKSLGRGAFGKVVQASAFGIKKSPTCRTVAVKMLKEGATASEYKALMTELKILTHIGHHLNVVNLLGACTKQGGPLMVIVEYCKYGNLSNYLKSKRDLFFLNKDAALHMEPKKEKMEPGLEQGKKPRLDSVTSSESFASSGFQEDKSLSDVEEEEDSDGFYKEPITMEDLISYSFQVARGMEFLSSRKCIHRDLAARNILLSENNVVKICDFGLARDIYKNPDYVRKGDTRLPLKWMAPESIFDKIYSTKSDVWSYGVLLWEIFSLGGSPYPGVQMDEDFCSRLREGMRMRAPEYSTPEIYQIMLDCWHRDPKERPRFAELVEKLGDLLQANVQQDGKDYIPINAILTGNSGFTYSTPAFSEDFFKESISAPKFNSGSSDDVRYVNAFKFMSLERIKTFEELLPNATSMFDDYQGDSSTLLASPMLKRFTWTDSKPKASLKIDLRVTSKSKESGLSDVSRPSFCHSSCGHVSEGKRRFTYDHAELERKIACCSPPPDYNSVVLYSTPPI
UniProt Q8NG66, sequence (whole entry, looked up): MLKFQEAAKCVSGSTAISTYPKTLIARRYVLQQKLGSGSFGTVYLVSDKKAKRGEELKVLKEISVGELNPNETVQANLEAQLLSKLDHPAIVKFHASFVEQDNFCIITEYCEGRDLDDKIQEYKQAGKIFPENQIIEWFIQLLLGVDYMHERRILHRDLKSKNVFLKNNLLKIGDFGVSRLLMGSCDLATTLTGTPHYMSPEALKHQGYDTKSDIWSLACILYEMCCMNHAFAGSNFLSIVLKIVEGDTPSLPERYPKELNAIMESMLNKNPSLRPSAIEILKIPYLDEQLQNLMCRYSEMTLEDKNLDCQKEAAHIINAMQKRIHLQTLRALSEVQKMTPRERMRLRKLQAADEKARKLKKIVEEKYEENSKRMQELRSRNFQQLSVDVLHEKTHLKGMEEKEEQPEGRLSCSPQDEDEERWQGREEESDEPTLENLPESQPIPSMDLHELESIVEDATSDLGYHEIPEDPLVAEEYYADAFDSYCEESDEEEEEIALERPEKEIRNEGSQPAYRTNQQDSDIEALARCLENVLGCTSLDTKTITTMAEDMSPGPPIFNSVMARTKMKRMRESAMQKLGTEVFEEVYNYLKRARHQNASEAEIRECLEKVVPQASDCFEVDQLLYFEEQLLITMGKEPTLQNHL
UniProt P53671, sequence (whole entry, looked up): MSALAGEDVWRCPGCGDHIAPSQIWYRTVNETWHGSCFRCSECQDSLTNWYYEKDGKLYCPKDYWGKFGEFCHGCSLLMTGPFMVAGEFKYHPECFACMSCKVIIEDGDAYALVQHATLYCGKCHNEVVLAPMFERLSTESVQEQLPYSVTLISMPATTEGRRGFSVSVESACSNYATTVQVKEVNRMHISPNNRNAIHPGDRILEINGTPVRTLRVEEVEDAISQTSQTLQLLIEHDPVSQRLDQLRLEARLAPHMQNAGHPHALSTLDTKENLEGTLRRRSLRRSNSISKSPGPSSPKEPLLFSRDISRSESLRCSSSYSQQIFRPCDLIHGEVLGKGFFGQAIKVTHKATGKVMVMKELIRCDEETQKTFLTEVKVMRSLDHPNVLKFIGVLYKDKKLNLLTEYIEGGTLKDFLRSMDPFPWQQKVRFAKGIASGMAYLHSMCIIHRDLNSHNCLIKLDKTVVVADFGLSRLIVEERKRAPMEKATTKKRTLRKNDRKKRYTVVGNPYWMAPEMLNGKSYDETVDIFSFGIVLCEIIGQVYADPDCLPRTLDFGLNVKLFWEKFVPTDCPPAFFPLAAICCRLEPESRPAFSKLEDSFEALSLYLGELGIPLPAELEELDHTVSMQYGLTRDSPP
UniProt P78368, sequence (whole entry, looked up): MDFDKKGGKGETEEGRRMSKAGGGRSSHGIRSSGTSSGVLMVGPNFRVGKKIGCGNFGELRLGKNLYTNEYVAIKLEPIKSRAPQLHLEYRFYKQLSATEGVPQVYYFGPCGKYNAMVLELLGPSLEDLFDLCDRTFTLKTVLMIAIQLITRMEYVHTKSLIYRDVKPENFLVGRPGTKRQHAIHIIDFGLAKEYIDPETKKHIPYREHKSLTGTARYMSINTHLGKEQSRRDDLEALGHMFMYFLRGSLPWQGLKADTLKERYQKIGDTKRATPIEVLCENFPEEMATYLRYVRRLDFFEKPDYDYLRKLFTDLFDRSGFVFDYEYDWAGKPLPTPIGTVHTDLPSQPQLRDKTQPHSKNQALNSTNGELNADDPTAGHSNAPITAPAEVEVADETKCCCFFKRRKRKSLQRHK

Sample 1 — observed: cell-free assay; technique: competition with immobilised ligand; tested at: 0.1 µM
SMILES: CS(=O)(=O)N1CCCC(NC(=O)[C@H](CCC2CCCCC2)NC(=O)c2ccc(CNC(=O)c3cnc4ccccn34)cc2)C1 (stereo partly shown)
For MAP3K1 (Homo sapiens, UniProt Q13233): remaining binding read 100%.
The remaining binding was 91% (TXK (Homo sapiens, UniProt P42681)).
For EPHB3 (Homo sapiens, UniProt P54753): remaining binding read 87%.
The remaining binding was 100% (FLT3 (Homo sapiens, UniProt P36888, R834Q)).
It gave 92% for remaining binding (LIM domain kinase 2 (LIMK2, Homo sapiens, UniProt P53671)).
FLT1 (Homo sapiens, UniProt P17948) — remaining binding: 100%.
CSNK1G2 (Homo sapiens, UniProt P78368) — remaining binding: 70%.
The remaining binding was 85% (MINK1 (Homo sapiens, UniProt Q8N4C8)).
ALK (Homo sapiens, UniProt Q9UM73, C1156Y) — remaining binding: 100%.
KIT (Homo sapiens, UniProt P10721, V559D) — remaining binding: 49%.
For WNK2 (Homo sapiens, UniProt Q9Y3S1): remaining binding read 100%.
NEK11 (Homo sapiens, UniProt Q8NG66) — remaining binding: 94%.

Sample 2 — host: human; medium: microsomes or S9; tested at: 2 µM; time: 0.5 h
`Cc1cccc2c(O)c3nc(C)n(-c4ccccc4)c3nc12` has a remaining compound of 69.3%.
The remaining compound of `COc1ccc2c3c1O[C@H]1C[C@@H](O)C=C[C@]31C[C@H](C)N(Cc1ccc(Br)cc1)C2` is reported as 76.7%.
`COc1cccc(Nc2ccc(-n3ccnc3)nn2)c1` has a remaining compound of 95.1%.
`CC(C)Cn1c(C(C)C)nnc1N1C[C@@H]2CCS(=O)(=O)[C@@H]2C1` has a remaining compound of 89.4%.
`CC(C)C(C(=O)NC1CCN(C(=O)NC(C)(C)C)CC1)N(C)C` (stereo not shown) gave a remaining compound of 69.3%.
`Cc1n[nH]c(NC(=O)CCc2ncc(C(C)(C)C)o2)c1Cl` has a remaining compound of 75.6%.
`O=C(O)CN1C(=O)S/C(=C\C=C2\SCCN2CCCS(=O)(=O)O)C1=S` has a remaining compound of 62.3%.
`CC1(C)OC(=O)C2(Cc3ccccc3N3CCC(c4ccccc4)CC32)C(=O)O1` (stereo not shown) gave a remaining compound of 0.417%.
For `Cc1ccc(S(=O)(=O)N2CCCC(C(=O)Nc3ccc4[nH]c(C5CCCO5)nc4c3)C2)s1` (stereo not shown), the remaining compound was 80.2%.
The remaining compound of `O=C1C2CC=CCC2C(O)=NN1c1cccc(F)c1` (stereo not shown) is reported as > 99.9%.

Sample 3 — observed: enzyme activity; action: inhibitor; tested at: 0.5 µM; relative to: control
Target: Cyclin-dependent kinase 6, with cyclin D1 (CDK6, Homo sapiens, UniProt Q00534)
UniProt Q00534, sequence (whole entry, looked up): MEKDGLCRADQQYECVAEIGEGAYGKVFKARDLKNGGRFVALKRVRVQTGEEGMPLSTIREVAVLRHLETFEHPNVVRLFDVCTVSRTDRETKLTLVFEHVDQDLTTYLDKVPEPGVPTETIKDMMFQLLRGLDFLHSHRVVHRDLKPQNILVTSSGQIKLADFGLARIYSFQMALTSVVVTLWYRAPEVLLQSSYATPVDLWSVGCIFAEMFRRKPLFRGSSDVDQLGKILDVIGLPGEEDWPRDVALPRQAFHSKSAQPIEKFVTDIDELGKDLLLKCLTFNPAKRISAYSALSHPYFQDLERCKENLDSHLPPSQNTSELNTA
`O=c1cc(N2CCOCC2)oc2c(-c3ccccc3)cccc12` gave a remaining activity of 97.9%.
`COc1ccc(COc2ccc(Cc3cnc(N)nc3N)cc2OC)cc1` has a remaining activity of 101%.
With `CCCNC(=O)Nc1ccc(Oc2ncnc3cc(OC)c(OC)cc23)cc1Cl` the remaining activity was 92.9%.
With `O=C(c1cc2cc(O)ccc2[nH]1)c1cc2cc(O)ccc2[nH]1` the remaining activity was 81.2%.
The remaining activity of `c1ccc(-c2n[nH]c3c2oc2ccccc23)cc1` is reported as 90.4%.
With `COc1ccc2c(c1)c(C1=C(c3c[nH]c4ccccc34)C(=O)NC1=O)cn2CCCN(C)C` the remaining activity was 64%.
`O=C1NC(=O)c2c1c1c3ccccc3[nH]c1c1[nH]c3cc(Br)ccc3c21` gave a remaining activity of 12.2%.
With `CCCCc1c(-c2ccc(OC)cc2)[nH]c2nccnc12` the remaining activity was 54.8%.
`COc1cccc(-c2cc(=O)c3ccccc3o2)c1N` gave a remaining activity of 95.5%.
`O=C1Cc2c([nH]c3ccc(Br)cc23)-c2ccccc2N1` gave a remaining activity of 83.4%.

Sample 4 — technique: RNA Bind-n-Seq; molecule type: RNA; medium: in vitro; tested at: 365 nM; relative to: no-protein control; reading: higher = stronger binding
Target: RNA binding protein fox-1 homolog 2, RRM domain, GST-SBP tag (RBFOX2, Homo sapiens, UniProt O43251-10, residues 100-194)
Notes: natural RNA segment, single round, ends assumed
Residues (chain): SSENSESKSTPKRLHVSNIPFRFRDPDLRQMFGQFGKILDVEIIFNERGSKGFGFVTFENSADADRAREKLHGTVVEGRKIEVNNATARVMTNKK
For `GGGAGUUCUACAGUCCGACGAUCUCUCUACUCACUGCAACCUCCACCUCCCGGGUUCAAGCAAUUCUCCUGCCUCAGCCUCCUGAGUAGCUGGGAUGACAGGUGCACGCCACCACGCCCGGCUAAUUUUUAUAUGGAAUUCUCGGGUGCCAA`, “RBNS enrichment (R)” read 0.576.
Under “RBNS enrichment (R)”, `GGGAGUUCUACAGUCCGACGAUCCUGGAUGUUUUGCUCUGUUUUGGUACCUGUAAUAUAGGGAAACACAACUUUUUUUGGGAAAGCCCUUUGACCCCAGCUUGCUAGUUGCAUAAUAAUAAAUUUUCUGUUCCUGGAAUUCUCGGGUGCCAA` is recorded as 0.834.
Under “RBNS enrichment (R)”, `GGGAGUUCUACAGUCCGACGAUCUUGGCUUGGUUUGGAUGAUUCUUAAGUUUAUUAGCCUAGUGAUGGCCAAAAAGUACUUGACUUAAGGUUCACUAAUUAGUUACAAAACUGAACAGCCUCGAUUUUUAAGAUGGAAUUCUCGGGUGCCAA` is recorded as 0.402.
`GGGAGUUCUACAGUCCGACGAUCCAGUGUUGAGAAUACGGCCUGGUAAAAUGGGAGAUGUAAAAUGACUAAAUGAAAGGAAGGGUAGUUUUAAUGUUGAAGCACCGUGCUGGGCACUGGAGCUACCCAGAGGAUGGAAUUCUCGGGUGCCAA`: “RBNS enrichment (R)” 0.549.
`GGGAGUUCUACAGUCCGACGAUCAUCAUUUGAAAAAUGUAUCUAAAAUAAUCCAGAGAACAUAAUGUUUGUCUUGGUCUGAUAAUGAUAAGAAGUCAAGGAUUGGCAGAGAAAAUACUAAACGCCAAGAGUUGUGGAAUUCUCGGGUGCCAA` — result for “RBNS enrichment (R)”: 0.527.
`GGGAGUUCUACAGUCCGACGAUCUUAUUUUUUUCUCUCAAUGGUAUAGCAUAUUCCUAUGCUUGAGAAGUAUAGGUCUACUGAAAAACCAUUGUAAAUGGACGUUACAGGUAUGCUGUAUUUUUGAAGGUAUUUGGAAUUCUCGGGUGCCAA`: “RBNS enrichment (R)” 0.542.
`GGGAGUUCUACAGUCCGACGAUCUUCAUUUACUCACCAUAUUUGAAUUGGCCUGAACAGAUGUAAAUCGGGAAGGAUGGGAAAAACUGCAGUCACCAACAAUGAUUAAUCAGCUGUUGCAGGCAGUGUCUUAAUGGAAUUCUCGGGUGCCAA`: “RBNS enrichment (R)” 0.276.
For `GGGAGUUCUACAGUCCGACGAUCCGGUCUUAUCUCCCUCGUGUGUUGAACUUGCUGUCCGUCCAUGCACCCUACGAAGGCCAUGCUGUGCAAACGUGCUCAGGAUCUCAGUAACGGGCCAACCCCCAACUACAUGGAAUUCUCGGGUGCCAA`, “RBNS enrichment (R)” read 0.912.
